Assay results of several laboratories.
Lines come from different studies, so protocols differ.

For `CC(C)NC[C@@H](C(=O)N1CCN(c2ncnc3c2[C@H](C)C[C@H]3O)CC1)c1ccc(Cl)cc1`, “apparent volume of distribution” read 12300 L (human, Severe hepatic function, plasma; oral, 100 mg single dose, NCI classification, geometric mean).
`CNC(=O)c1cc(Oc2ccc(NC(=O)Nc3ccc(Cl)c(C(F)(F)F)c3)cc2)ccn1`: “apparent oral clearance” 5.81 L/h (human; oral, dose not given).
Under “apparent central volume”, `CC#CC(=O)N1CCC[C@H]1c1nc(-c2ccc(C(=O)Nc3ccccn3)cc2)c2c(N)nccn12` is recorded as 31 L (population PK model; human; oral, dose not given).
`COc1cc(NC(=O)CCN2CCC(OC(=O)Nc3ccccc3-c3ccccc3)CC2)c(Cl)cc1CNC[C@H](O)c1ccc(O)c2[nH]c(=O)ccc12`: “apparent peripheral volume” 9.97 L (human COPD patients, plasma; inhaled, 800 µg once daily or 400 µg twice daily, day 28, log population model estimate).
`CC(C)NCC1CCc2cc(CO)c([N+](=O)[O-])cc2N1` (stereo not shown) — result for “apparent oral clearance”: 62 mL/min/kg (human patients, plasma; oral, 1000 mg).
`O=C(NC[C@H](O)CO)c1ccncc1Nc1ccc(I)cc1F` — result for “apparent volume of distribution”: 276 L (human; oral, 45 mg, single dose with FOLFIRI).
For `CCCOc1ccc([C@H]2CNC(=O)N2c2ccc3[nH]cnc3c2)cc1`, “apparent terminal half-life” read 2.11 h (human volunteers fasted, plasma; oral solution, 10 mg single dose, day 1, geometric mean).
`NC1(c2ccc(-c3nc4ccn5c(=O)[nH]nc5c4cc3-c3ccccc3)cc2)CCC1`: “apparent clearance (CL/F)” 600 mL/min (human patients, plasma; oral, 90 mg, expansion, dose reduced, together with: dinaciclib 9 mg/m^2).
For `Cc1nc2c(F)cc(-c3nc(Nc4ccc(CN5CCNCC5)cn4)ncc3F)cc2n1C(C)C`, “apparent hepatic clearance” read 21.6 L/h (human patients; oral, 150 mg single, geometric mean).
Under “apparent oral clearance (CL/F)”, `C=CC[C@@H]1/C=C(\C)C[C@H](C)C[C@H](OC)[C@H]2O[C@@](O)(C(=O)C(=O)N3CCCC[C@H]3C(=O)O[C@H](/C(C)=C/[C@@H]3CC[C@@H](O)[C@H](OC)C3)[C@H](C)[C@@H](O)CC1=O)[C@H](C)C[C@@H]2OC` is recorded as 18.4 L/h (healthy humans, whole blood; oral, 5 mg single dose).
Under “apparent volume of distribution”, `C=CC(=O)N1CCC([C@@H]2CCNc3c(C(N)=O)c(-c4ccc(Oc5ccccc5)cc4)nn32)CC1` is recorded as 966 L (human; oral, 160 mg, single dose, mean).
`COc1cccc(-c2ccc(NC(=O)C3=C(C(=O)O)CCC3)c(F)c2)c1`: “apparent volume Vz/F” 12.9 L (human, male, plasma; oral, 50 mg once daily, day 13, geometric mean).
For `CCCCC1=NC2(CCCC2)C(=O)N1Cc1ccc(-c2ccccc2S(=O)(=O)Nc2noc(C)c2C)c(COCC)c1`, “apparent clearance (CL/F)” read 64.7 mL/min (human, plasma; oral, 400 mg single, population PK model, reference subject).

Excerpt of the above:
`COc1cc(NC(=O)CCN2CCC(OC(=O)Nc3ccccc3-c3ccccc3)CC2)c(Cl)cc1CNC[C@H](O)c1ccc(O)c2[nH]c(=O)ccc12`: “apparent peripheral volume” 9.97 L (human COPD patients, plasma; inhaled, 800 µg once daily or 400 µg twice daily, day 28, log population model estimate).
